# Measured values from different studies.
# Compare with care: the assays were run in different laboratories. Numbers after ± are the reported error.
# Organism: Mycobacterium tuberculosis
SMILES,assay,system,setting,scale,measurement,result
Cc1ccc(S(=O)(=O)N(CCc2nnc(S)o2)c2ccccc2)cc1,BACTEC radiometric,H37Rv,12.5 µg/mL,,inhibition,73%
Nc1c2c(nc3sc4c(c13)CCCCC4)CCCC2,"ATP level, BacTiter-Glo luminescence",H37Rv,"2 days, hypoxic shift-down",,IC50,3.4 µM
Cc1nc(=O)c2cc(CN(C)c3ccc(C(=O)Nc4n[nH]c5ccccc45)s3)ccc2[nH]1,,pptT knockdown with ATc,,,MIC50,50.5 µM
O=C1c2ccccc2C(=O)N1c1ccccc1Br,bacterial growth,H37Rv,,,IC50,75 µM
Cc1cc(S(=O)(=O)N(C)CC(=O)Nc2ccc(N3CCOCC3)c(Cl)c2)c2[nH]ncc2c1,,intrabacterial,"10 µM, 24 h",relative to: untreated,pyruvate level,25.6 ± 0.03 fold
Cc1ccc(C2OC(c3ccc(C)cc3)C(C)C(=NOCc3cn(-c4ccccc4)nn3)C2C)cc1 (stereo not shown),resazurin,H37Rv,6500 µg/mL,,inhibition,76%
Cc1cc(Oc2nc(N3CC[C@@H](c4ccncc4)C3)ncc2F)[nH]n1,,"THP-1 macrophages, H37Rv bioluminescent, non-replicating",,relative to: D4 over D4+1,IC50 ratio,45
O/C(=C\C(=S)S)c1ccccc1,,H37Rv ATCC 27294,,relative to: IC50 Vero cells over MIC100,selectivity index,3.45
Cc1cc(C2CC2)[nH]c(=O)c1CNC(=O)c1ccc(C(F)(F)F)nc1,"microbial growth, resazurin",H37RV,20 µg/mL,,inhibition,5%
CC(=O)c1sc(N/N=C/c2c(-c3ccc(Cl)cc3)nc3ncccn23)nc1C,MABA,H37Rv ATCC 27294,,,MIC,12.5 µg/mL
Cc1nc(=O)c2cc(CN(C)c3cccc(C(=O)Nc4n[nH]c5ccccc45)c3)ccc2[nH]1,microbial growth,H37RV,,,MIC50,32.2 µM
O=C1c2ccccc2C(=O)N1c1nnc(-c2ccccc2Cl)s1,bacterial growth,H37Rv,,,IC50,91 µM
COC(=O)c1cnc(NC(=O)c2ccccc2O)s1,,H37Rv,"concentration not given, 120 h",,antibacterial activity,inactive
CN[C@@H]1[C@H](O)[C@H](NC)[C@H]2O[C@]3(O)[C@H](O[C@@H]2[C@H]1O)O[C@H](C)C[C@H]3NC(=O)Cc1ccc(F)cn1,,MDR and XDR isolates,,,MIC50,1.6 µg/mL
Cc1[nH]c(=O)c(CNC(=O)c2ccc(C(F)(F)F)cn2)c2c1CCCC2,"microbial growth, resazurin",H37RV,20 µg/mL,,inhibition,22.3%
CC1C(=NOCc2cn(-c3ccccc3)nn2)C(C)C(c2ccc(Br)cc2)OC1c1ccc(Br)cc1 (stereo not shown),resazurin,H37Rv,6500 µg/mL,,inhibition,89%
Cc1[nH]c(=O)c(CNC(=O)c2cnc(C(F)(F)F)nc2)c2c1CCCC2,"microbial growth, resazurin",H37RV,20 µg/mL,,inhibition,12.3%
Cc1nc(=O)c2cc(CN(C)c3cccc(C(=O)N[C@@]4(C(=O)O)CCC[C@H](C(=O)O)C4)c3)ccc2[nH]1,,pptT knockdown without ATc,,,MIC90,29 µM
CC1C(=NOCc2cc(-c3ccc(Cl)cc3)no2)C(C)C(c2ccc(Br)cc2)OC1c1ccc(Br)cc1 (stereo not shown),resazurin,H37Rv,6500 µg/mL,,inhibition,92%
COc1nc2ccc(Br)cc2cc1[C@@H](c1ccccc1)[C@@](O)(CCN(C)C)c1cccc2ccccc12,"ATP level, BacTiter-Glo luminescence",H37Rv,"2 days, hypoxic shift-down",,IC50,1 µM
Cc1sc(-n2c(C)c3c(C)nnc(C)c3c2C)nc1-c1ccc(Br)cc1,microbial growth,H37RV,,,MIC90,11.5 µM
CN[C@@H]1[C@H](O)[C@H](NC)[C@H]2O[C@]3(O)[C@H](O[C@@H]2[C@H]1O)O[C@H](C)C[C@H]3NC(=O)Cc1ccc(Cl)cn1,,MDR and XDR isolates,,,MIC50,0.8 µg/mL
CCOC(=O)c1cnc(N/N=C/c2c(-c3ccc(C)cc3)nc3ncccn23)s1,MABA,H37Rv ATCC 27294,,,MIC,3.12 µg/mL
C#CCN(Cc1ccc2[nH]c(N)nc(=O)c2c1)c1ccc(C(=O)N[C@@H](CCC(=O)O)C(=O)O)cc1,,pptT knockdown without ATc,,,MIC90,37.4 µM
CCOC(=O)/C=C1/SC(N/N=C/c2c(-c3ccc(OC)cc3)nc3ncccn23)=NC1=O,MABA,H37Rv ATCC 27294,,,MIC,50 µg/mL
Cc1[nH]c(=O)c(CNC(=O)c2ccc(OC(F)(F)F)cc2)c2c1CCCC2,"microbial growth, resazurin",H37RV,25 µg/mL,,inhibition,64.2%
O=C(Cc1cccs1)N[C@@H]1C(=O)N2C(C(=O)O)=C(CSc3cccc[n+]3[O-])CS[C@H]12,,H37Rv,"replicating, with: clavulanate 25 µM",,MBC,1.6 µM
Cc1ccc(N(CCc2nnc(S)o2)S(=O)(=O)c2ccc(C)cc2)cc1,BACTEC radiometric,H37Rv,12.5 µg/mL,,inhibition,36%
Cc1cc(S(=O)(=O)N(C)CC(=O)Nc2ccn(C)c(=O)c2)c2[nH]ncc2c1,,intrabacterial,"10 µM, 24 h",relative to: untreated,pyruvate level,37.3 ± 0.05 fold
O=S(=O)(c1ccccc1)N(CCc1nnc(S)o1)c1ccccc1,BACTEC radiometric,H37Rv,12.5 µg/mL,,inhibition,30%
CN(C)c1ccc(-c2nc3ccccc3n2CCCOc2ccccc2)cc1,"ATP level, BacTiter-Glo luminescence",H37Rv,"2 days, hypoxic shift-down",,IC50,9.3 µM
C#CCN(Cc1ccc2[nH]c(C)nc(=O)c2c1)c1ccc(C(=O)N[C@@H](CCC(=O)O)C(=O)O)cc1,microbial growth,H37RV,,,MIC90,> 100 µM
Cc1ccn2c(-c3csc(Nc4ccccn4)n3)c(C)nc2c1,"ATP level, BacTiter-Glo luminescence",H37Rv,"2 days, hypoxic shift-down",,IC50,7.4 µM
Cc1cc(=O)oc2cc(OCCCCn3cc(COc4ccc(N5C(N)=NC(N)=NC56CCCCC6)cc4)nn3)ccc12,microbial growth,ATCC27294 H37RV,,,MIC50,1.6 µM

# For quick reference, copied from above:
SMILES,assay,system,setting,scale,measurement,result
CC1C(=NOCc2cn(-c3ccccc3)nn2)C(C)C(c2ccc(Br)cc2)OC1c1ccc(Br)cc1 (stereo not shown),resazurin,H37Rv,6500 µg/mL,,inhibition,89%
Cc1[nH]c(=O)c(CNC(=O)c2cnc(C(F)(F)F)nc2)c2c1CCCC2,"microbial growth, resazurin",H37RV,20 µg/mL,,inhibition,12.3%
Cc1nc(=O)c2cc(CN(C)c3cccc(C(=O)N[C@@]4(C(=O)O)CCC[C@H](C(=O)O)C4)c3)ccc2[nH]1,,pptT knockdown without ATc,,,MIC90,29 µM
